Results gathered from unrelated publications.
Parts stem from different laboratories: compare values within a part only.
Chain of UniProt Q04771 (whole entry, looked up): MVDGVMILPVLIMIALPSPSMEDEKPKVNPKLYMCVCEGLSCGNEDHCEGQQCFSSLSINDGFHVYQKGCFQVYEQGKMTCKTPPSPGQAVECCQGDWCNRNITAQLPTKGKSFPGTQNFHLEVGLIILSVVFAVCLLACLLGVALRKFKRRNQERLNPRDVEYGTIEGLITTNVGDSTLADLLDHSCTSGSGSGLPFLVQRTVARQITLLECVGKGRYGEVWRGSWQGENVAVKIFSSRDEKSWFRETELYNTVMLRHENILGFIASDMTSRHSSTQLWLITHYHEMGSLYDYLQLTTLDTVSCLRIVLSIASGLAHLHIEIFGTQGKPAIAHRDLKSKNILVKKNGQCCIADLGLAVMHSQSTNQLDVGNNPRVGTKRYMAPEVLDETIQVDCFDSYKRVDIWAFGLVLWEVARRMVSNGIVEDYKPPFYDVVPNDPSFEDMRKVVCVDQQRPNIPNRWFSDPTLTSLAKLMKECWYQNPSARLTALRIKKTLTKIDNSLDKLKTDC
Chain of UniProt O43353 (whole entry, looked up): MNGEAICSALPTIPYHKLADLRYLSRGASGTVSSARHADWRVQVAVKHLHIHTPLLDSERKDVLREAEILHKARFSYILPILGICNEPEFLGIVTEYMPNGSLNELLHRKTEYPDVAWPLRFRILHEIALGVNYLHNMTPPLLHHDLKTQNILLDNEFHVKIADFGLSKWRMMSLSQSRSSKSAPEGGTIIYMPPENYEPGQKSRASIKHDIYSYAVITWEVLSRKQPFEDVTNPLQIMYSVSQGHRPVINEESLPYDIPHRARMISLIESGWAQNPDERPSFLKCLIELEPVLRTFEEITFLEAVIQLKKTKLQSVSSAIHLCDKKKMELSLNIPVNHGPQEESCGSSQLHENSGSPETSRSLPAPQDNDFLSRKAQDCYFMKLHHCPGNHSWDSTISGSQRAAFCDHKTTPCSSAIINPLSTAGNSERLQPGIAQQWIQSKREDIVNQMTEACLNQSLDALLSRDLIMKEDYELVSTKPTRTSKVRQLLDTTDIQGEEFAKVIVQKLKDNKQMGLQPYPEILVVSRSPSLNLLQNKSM
Chain of UniProt P80192 (whole entry, looked up): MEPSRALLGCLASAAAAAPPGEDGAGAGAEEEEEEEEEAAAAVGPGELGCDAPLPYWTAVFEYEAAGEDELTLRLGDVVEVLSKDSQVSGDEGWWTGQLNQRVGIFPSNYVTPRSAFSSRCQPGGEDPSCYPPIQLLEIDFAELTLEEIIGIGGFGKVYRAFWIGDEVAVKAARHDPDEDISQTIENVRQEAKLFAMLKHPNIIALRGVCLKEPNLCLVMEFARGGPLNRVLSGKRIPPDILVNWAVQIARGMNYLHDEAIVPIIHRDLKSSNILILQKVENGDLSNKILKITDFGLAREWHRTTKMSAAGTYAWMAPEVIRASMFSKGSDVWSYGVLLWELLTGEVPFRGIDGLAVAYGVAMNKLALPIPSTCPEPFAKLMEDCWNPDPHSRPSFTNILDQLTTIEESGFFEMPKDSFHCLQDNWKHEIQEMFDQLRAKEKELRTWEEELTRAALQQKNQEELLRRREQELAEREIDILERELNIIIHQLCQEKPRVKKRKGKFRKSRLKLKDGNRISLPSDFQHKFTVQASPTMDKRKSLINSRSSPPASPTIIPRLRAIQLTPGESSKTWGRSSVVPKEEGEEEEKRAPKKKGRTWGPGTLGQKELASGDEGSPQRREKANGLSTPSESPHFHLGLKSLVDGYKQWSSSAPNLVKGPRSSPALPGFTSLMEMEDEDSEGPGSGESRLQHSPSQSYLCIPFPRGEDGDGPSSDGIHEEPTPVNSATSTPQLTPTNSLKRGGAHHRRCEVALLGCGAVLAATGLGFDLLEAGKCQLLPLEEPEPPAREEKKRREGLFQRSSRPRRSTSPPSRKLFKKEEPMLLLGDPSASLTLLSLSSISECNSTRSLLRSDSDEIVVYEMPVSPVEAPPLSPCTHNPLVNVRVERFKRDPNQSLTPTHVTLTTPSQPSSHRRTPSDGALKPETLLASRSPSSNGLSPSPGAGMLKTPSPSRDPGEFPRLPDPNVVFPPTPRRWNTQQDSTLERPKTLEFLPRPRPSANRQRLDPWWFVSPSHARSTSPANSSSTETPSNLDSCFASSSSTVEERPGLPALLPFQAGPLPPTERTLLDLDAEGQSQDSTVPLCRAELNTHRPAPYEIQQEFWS
Chain of UniProt P31645 (whole entry, looked up): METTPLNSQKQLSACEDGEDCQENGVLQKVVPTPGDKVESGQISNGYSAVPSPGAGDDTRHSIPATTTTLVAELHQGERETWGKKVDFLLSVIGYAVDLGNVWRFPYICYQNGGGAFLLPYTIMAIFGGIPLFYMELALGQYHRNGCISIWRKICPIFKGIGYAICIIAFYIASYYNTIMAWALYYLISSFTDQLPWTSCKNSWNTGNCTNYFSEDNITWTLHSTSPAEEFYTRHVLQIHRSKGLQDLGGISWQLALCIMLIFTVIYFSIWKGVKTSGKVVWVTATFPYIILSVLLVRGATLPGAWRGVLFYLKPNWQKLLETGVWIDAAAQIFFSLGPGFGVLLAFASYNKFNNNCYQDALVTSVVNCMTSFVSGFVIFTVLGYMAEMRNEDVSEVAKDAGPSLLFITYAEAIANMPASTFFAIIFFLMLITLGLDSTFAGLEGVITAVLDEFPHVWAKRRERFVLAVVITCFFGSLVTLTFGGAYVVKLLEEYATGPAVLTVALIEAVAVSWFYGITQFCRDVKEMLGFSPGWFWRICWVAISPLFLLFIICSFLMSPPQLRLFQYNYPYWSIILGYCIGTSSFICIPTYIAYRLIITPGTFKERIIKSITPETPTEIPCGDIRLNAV
Chain of UniProt Q9Y4K4 (whole entry, looked up): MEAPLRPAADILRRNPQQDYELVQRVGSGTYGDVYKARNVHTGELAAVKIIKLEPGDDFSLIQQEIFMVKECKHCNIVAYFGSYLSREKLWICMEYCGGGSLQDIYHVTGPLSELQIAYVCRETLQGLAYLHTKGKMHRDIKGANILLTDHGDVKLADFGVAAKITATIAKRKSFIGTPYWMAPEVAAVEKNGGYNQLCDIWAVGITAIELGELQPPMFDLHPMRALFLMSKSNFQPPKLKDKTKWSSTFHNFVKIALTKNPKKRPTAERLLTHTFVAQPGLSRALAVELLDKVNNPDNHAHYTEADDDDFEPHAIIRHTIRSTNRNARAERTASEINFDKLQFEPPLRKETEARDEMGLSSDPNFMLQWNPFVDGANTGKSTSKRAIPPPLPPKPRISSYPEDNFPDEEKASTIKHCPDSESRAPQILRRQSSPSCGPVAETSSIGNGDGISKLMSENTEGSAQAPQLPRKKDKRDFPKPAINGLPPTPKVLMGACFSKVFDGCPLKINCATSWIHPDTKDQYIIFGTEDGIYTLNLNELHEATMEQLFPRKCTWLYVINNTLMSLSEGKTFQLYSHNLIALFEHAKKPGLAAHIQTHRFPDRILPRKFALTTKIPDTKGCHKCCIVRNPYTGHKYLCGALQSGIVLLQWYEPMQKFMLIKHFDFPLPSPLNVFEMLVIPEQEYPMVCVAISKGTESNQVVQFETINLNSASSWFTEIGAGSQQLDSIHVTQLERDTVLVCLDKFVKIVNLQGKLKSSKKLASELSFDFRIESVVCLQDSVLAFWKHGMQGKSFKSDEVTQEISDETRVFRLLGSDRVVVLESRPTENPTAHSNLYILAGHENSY

Block 1 — read-out: RNA clamping; method: fluorescence polarization; concentration: concentration not given; setting: mean of two replicates; with: FAM-labelled poly r(AG)8 RNA; quantity: fluorescence polarization change
Target: Eukaryotic initiation factor 4A-I (EIF4A1, Homo sapiens, UniProt P60842)
Chain of UniProt P60842 (whole entry, looked up): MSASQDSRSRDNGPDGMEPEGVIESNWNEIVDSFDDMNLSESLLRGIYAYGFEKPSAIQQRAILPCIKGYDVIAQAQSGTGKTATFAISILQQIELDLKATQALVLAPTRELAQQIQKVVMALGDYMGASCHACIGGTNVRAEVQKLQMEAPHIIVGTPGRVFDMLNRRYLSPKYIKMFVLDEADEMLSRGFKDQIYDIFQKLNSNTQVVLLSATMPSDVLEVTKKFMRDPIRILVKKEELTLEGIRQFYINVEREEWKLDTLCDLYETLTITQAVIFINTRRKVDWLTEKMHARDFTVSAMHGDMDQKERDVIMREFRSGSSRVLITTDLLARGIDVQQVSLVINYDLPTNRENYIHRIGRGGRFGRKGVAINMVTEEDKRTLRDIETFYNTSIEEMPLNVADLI
COc1cc(OC)c2c(c1)O[C@@]1(c3ccc(Br)cc3)[C@H](c3ccccc3)C[C@@H](O)[C@@]21O: 26.8 mP
COc1ccc([C@@]23Oc4cc(OC)cc(OC)c4[C@]2(O)c2nc(-c4ccc(O)cc4)[nH]c(=O)c2[C@H]3c2ccccc2)cc1: 20.3 mP
COC(=O)[C@@H]1[C@@H](c2ccccc2)[C@]2(c3ccc(OC)cc3)Oc3cc(OC)cc(OC)c3[C@@]23NC(C(C)(C)C)=N[C@@]13O: 63.6 mP
COC(=O)[C@H]1C(=O)[C@@]2(O)c3c(OC)cc(OC)cc3O[C@@]2(c2ccc(OC)cc2)[C@@H]1c1ccccc1: 47.1 mP
CCOC(=O)[C@H]1[C@@H](c2ccccc2)[C@]2(c3ccc(Br)cc3)Nc3cc(OC)cc(OC)c3[C@@]1(O)[C@H]2O: 11.8 mP
COC(=O)[C@H]1[C@H](c2ccccc2)[C@]2(c3ccc(OC)cc3)Oc3cc(OC)cc(OC)c3[C@@]23OC(c2ccccc2)=N[C@@]13O: 3.4 mP
COc1ccc([C@@]23Oc4cc(OC)cc(OC)c4[C@]2(O)c2nc(-c4ccccc4Cl)[nH]c(=O)c2[C@H]3c2ccccc2)cc1: 39.7 mP
COC(=O)Cc1nc2c(c(=O)[nH]1)[C@@H](c1ccccc1)[C@]1(c3ccc(OC)cc3)Oc3cc(OC)cc(OC)c3[C@]21O: 35.4 mP
COc1ccc([C@@]23Oc4cc(OC)cc(OC)c4[C@@]24NC(C)=N[C@@]4(O)[C@H](C(=O)N(C)C)[C@H]3c2ccccc2)cc1: 95.4 mP

Block 2 — read-out: enzyme activity; action: inhibitor; concentration: 0.5 µM; reference: control; quantity: remaining activity
Compound: O=C1NC(=O)c2c1c1c3ccccc3n3c1c1c2c2ccccc2n1[C@H]1CC[C@@H]3O1
MAP3K9 (Homo sapiens, UniProt P80192): 8.72%
RAF1 (Homo sapiens, UniProt P04049): 121%
ACVR1 (Homo sapiens, UniProt Q04771): 85.8%
DSTYK (Homo sapiens, UniProt Q6XUX3): 45.5%
PDGFRB (Homo sapiens, UniProt P09619): 19.1%
ULK1 (Homo sapiens, UniProt O75385): 73.1%
RIPK2 (Homo sapiens, UniProt O43353): 79.7%
MAP4K5 (Homo sapiens, UniProt Q9Y4K4): 2.69%

Block 3 — read-out: enzyme activity; action: inhibitor; concentration: 10 µM; quantity: inhibition
Target: Calcium/calmodulin-dependent protein kinase type II subunit alpha (CAMK2A, Homo sapiens, UniProt Q9UQM7)
Chain of UniProt Q9UQM7 (whole entry, looked up): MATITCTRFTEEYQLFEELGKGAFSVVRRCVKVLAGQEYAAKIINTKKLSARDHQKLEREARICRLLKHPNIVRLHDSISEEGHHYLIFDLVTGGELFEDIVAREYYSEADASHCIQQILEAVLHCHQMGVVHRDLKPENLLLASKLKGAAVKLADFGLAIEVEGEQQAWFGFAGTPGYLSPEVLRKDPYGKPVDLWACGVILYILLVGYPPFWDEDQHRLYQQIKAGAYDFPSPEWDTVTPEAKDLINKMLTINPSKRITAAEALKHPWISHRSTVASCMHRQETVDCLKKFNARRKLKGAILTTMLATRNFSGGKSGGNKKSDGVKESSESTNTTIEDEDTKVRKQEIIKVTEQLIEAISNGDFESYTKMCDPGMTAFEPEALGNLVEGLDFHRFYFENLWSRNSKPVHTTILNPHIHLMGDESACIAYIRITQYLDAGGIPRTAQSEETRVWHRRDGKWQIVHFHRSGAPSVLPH
CC(=O)OC(C)(C)/C=C/C(=O)[C@](C)(O)[C@H]1[C@H](O)C[C@@]2(C)[C@@H]3CC=C4[C@@H](C[C@H](O)C(=O)C4(C)C)[C@]3(C)C(=O)C[C@]12C: -13%
CC(C)(N)CNC(=O)C[C@H]1CC[C@]2(CC1)OO[C@]1(O2)C2CC3CC(C2)CC1C3: 4%
C[C@H]1O[C@@H](O[C@H]2CC[C@@]3(C)[C@H](CC[C@@H]4[C@@H]3C[C@@H](O)[C@]3(C)[C@@H](C5=CC(=O)OC5)CC[C@]43O)C2)C[C@H](O)[C@@H]1O[C@H]1C[C@H](O)[C@H](O[C@H]2C[C@H](O)[C@H](O[C@@H]3O[C@H](CO)[C@@H](O)[C@H](O)[C@H]3O)[C@@H](C)O2)[C@@H](C)O1: -5%
C[C@@]1(C(=O)O)CC[C@]2(C)CC[C@]3(C)C4=CC(=O)c5c(cc(O)c(O)c5C=O)[C@]4(C)CC[C@@]3(C)[C@@H]2C1: -32%
CC[C@@]1(O)C(=O)OCc2c1cc1n(c2=O)Cc2cc3ccccc3nc2-1: -7%
C[C@]12CC[C@@H](O)C[C@@H]1CC[C@@H]1[C@@H]2[C@@H](O)C[C@]2(C)C(=O)CC[C@@H]12: -22%
C[S+]([O-])/C=C/CCN=C=S (stereo not shown): -13%

Single results of other studies — read-out: cell-free assay
CRK2: Cyclin-dependent kinase 2 homolog (CRK2, Plasmodium falciparum, UniProt P61075)
Chain of UniProt P61075 (whole entry, looked up): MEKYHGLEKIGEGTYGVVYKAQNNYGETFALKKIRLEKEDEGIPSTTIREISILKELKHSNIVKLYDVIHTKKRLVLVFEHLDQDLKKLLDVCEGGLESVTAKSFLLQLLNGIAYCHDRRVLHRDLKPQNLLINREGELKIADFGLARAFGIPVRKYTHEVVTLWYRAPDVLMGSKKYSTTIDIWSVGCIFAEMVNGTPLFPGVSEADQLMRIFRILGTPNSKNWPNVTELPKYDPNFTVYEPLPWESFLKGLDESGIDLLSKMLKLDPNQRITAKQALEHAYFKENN
CCS(=O)(=O)c1cc2cc(C[C@](O)(CC(C)(C)c3ccc(F)cc3C(N)=O)C(F)(F)F)[nH]c2cn1 — inhibition (SLC6A4 (Homo sapiens, UniProt P31645); 10 µM): -14.1%
C[C@H](NC(=O)c1cnc2n1[C@](C)(Cc1ccc(C#N)cc1)C(=O)N2c1cc(Cl)c(F)c(Cl)c1)C(=O)NC1(c2ccccn2)CC1 — remaining binding (CRK2; competition with immobilised ligand; 1 µM): 100%
CC(=O)c1c(NS(C)(=O)=O)c2cc(-c3ccc(Cl)cc3)c(-c3ccc(Cl)cc3Cl)nc2n(C)c1=O — remaining binding (pknB (Mycobacterium tuberculosis, UniProt P9WI81); competition with immobilised ligand; 1 µM): 83%
O=C(NS(=O)(=O)c1ccc(NCC2CCOCC2)c([N+](=O)[O-])c1)c1ccc(N2CCN(Cc3ccc(C(F)(F)F)cc3-c3ccc(Cl)cc3)CC2)cc1Oc1cnc2[nH]ccc2c1 — remaining binding (CRK2; competition with immobilised ligand; 1 µM): 100%

A few entries again (block 1):
COC(=O)[C@H]1C(=O)[C@@]2(O)c3c(OC)cc(OC)cc3O[C@@]2(c2ccc(OC)cc2)[C@@H]1c1ccccc1: 47.1 mP
COc1ccc([C@@]23Oc4cc(OC)cc(OC)c4[C@]2(O)c2nc(-c4ccccc4Cl)[nH]c(=O)c2[C@H]3c2ccccc2)cc1: 39.7 mP
COc1ccc([C@@]23Oc4cc(OC)cc(OC)c4[C@@]24NC(C)=N[C@@]4(O)[C@H](C(=O)N(C)C)[C@H]3c2ccccc2)cc1: 95.4 mP
